# Assay results collected from several papers.
# Each numbered part is a random draw from the data of one study; scales do not carry over between parts. Substitutions count along the parent as printed.
# Sequence of UniProt Q06187 (whole entry, looked up): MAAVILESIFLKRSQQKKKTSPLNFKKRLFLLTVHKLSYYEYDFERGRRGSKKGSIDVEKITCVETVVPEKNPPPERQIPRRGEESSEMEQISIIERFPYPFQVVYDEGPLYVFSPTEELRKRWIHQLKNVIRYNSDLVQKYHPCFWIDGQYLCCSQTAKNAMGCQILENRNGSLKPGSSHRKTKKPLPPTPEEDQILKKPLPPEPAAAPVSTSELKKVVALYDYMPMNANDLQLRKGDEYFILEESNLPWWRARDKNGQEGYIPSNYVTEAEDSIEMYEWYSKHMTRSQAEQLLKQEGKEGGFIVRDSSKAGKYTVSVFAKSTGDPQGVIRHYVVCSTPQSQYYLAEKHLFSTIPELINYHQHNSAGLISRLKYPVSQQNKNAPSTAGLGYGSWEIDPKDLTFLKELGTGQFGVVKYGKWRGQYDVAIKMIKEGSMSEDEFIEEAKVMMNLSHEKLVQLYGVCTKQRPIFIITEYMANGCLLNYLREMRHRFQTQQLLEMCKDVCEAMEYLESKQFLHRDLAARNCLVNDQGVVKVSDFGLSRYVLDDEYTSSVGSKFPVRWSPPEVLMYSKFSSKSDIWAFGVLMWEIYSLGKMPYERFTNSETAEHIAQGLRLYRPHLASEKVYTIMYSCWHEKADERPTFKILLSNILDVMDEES
# Sequence of UniProt Q13557 (whole entry, looked up): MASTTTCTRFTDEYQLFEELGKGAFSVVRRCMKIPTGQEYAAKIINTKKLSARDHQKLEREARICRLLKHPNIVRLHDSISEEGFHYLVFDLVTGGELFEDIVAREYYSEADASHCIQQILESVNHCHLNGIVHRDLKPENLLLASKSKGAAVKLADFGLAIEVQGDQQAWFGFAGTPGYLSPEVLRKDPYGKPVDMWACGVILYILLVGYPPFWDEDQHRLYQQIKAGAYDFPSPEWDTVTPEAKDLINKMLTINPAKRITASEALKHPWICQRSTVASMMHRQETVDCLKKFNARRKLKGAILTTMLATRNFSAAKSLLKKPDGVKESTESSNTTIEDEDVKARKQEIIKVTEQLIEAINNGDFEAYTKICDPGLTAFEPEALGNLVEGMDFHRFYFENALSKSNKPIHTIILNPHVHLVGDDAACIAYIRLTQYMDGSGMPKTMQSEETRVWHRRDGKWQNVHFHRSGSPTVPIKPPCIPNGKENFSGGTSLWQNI
# Sequence of UniProt O75417 (whole entry, unmodified, looked up): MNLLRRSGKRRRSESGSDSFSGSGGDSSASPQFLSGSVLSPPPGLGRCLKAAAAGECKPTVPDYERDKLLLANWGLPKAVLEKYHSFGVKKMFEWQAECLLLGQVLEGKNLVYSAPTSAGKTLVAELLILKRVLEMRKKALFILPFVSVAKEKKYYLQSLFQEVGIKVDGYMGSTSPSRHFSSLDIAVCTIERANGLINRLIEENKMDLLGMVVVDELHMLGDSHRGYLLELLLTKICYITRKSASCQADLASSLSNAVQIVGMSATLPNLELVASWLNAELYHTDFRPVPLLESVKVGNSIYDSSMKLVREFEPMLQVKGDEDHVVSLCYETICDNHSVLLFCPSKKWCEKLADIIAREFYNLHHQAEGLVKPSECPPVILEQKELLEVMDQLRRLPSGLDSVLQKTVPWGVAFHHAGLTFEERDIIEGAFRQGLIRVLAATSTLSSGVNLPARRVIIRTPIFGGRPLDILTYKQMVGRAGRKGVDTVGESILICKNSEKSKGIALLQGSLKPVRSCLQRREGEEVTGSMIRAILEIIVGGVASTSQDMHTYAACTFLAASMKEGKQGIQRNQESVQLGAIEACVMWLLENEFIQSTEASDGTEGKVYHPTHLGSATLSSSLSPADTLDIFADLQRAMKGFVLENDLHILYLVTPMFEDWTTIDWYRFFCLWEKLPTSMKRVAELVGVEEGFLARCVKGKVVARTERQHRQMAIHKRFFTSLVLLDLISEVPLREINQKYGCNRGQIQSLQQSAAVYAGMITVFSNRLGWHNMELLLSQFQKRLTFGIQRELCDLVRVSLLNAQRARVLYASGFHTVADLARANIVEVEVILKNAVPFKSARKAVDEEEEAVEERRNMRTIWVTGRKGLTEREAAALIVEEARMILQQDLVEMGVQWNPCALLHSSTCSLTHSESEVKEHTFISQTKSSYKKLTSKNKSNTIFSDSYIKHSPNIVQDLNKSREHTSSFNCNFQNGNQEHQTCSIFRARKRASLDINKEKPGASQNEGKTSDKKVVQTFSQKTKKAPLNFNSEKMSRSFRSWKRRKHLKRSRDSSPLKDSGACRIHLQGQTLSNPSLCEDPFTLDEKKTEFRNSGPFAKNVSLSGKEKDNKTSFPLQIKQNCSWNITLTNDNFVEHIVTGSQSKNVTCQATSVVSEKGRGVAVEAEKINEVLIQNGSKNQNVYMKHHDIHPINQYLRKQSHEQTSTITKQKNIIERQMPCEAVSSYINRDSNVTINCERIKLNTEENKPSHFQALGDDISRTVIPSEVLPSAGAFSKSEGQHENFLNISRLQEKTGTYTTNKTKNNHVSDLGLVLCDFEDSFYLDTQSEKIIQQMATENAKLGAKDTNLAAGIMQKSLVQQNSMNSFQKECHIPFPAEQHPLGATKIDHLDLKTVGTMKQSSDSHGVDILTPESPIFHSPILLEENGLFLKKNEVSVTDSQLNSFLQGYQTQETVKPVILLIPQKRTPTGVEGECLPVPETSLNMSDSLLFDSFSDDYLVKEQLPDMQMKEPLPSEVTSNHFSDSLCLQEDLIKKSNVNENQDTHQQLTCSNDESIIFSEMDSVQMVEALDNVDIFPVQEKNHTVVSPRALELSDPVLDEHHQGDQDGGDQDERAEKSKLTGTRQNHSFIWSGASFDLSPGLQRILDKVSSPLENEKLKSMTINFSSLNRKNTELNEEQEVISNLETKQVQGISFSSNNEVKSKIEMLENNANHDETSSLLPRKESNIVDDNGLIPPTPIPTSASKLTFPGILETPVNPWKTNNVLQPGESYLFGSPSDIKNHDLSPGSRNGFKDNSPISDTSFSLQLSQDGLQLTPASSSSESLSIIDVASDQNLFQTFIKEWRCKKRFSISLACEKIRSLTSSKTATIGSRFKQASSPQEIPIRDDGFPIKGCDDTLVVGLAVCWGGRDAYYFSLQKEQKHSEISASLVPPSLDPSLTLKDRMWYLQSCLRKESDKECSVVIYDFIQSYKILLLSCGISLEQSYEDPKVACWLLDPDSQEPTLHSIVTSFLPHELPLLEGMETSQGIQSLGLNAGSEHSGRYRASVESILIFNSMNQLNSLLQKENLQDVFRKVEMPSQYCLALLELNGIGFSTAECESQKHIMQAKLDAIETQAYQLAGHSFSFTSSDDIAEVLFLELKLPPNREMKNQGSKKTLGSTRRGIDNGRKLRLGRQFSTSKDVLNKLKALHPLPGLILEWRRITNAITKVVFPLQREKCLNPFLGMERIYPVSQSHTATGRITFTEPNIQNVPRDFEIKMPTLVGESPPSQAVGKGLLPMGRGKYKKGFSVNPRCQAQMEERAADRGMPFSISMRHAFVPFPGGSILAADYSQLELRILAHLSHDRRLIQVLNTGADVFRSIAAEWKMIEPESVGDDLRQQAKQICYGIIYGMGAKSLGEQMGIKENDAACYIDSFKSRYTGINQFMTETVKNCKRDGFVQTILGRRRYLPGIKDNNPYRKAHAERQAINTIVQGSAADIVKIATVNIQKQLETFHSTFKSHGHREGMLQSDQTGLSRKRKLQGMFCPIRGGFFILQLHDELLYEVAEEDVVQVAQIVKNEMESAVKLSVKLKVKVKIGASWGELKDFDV
# Sequence of UniProt Q8N752 (whole entry, looked up): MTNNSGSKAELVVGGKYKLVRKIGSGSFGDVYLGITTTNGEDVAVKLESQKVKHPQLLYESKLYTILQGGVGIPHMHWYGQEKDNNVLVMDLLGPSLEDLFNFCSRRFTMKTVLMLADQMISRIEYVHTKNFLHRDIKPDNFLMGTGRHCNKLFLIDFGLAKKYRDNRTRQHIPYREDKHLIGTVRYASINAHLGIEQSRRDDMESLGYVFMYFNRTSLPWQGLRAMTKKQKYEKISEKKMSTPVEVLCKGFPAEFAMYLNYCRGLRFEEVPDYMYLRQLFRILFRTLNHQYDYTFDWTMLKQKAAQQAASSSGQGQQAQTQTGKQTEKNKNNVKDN

# Block 1
# Organism: Plasmodium berghei
# Action: inhibitor
# Cells: Huh-7
# Strain: GFP-expressing, liver stage
# Tested at: 10 µM
# Time: 24 h
# Baseline: untreated control
SMILES,infection rate
NCCc1cc(O)c(O)cc1O,41.7%
C[C@@H]1[C@H](O)[C@@H](C)/C=C/C=C/CC/C=C/C=C/C=C/C=C/[C@H](O[C@@H]2O[C@H](C)[C@@H](O)[C@H](N)[C@@H]2O)C[C@@H]2O[C@](O)(C[C@@H](O)[C@H](O)CC[C@@H](O)C[C@@H](O)C[C@@H](O)CC(=O)O[C@H]1C)C[C@H](O)[C@H]2C(=O)O,105%
CC(C)c1cccc(C(C)C)c1O,93.5%

# Block 2
# Structure (SMILES): O=C1CCC(N2Cc3c(ccc4c3OCC43CCN(Cc4ccccc4)CC3)C2=O)C(=O)N1 (stereo not shown)
# Target: CRBN/Zinc finger protein Helios (Homo sapiens, UniProt Q96SW2+Q9UKS7)
# Sequence of UniProt Q96SW2 (whole entry, looked up): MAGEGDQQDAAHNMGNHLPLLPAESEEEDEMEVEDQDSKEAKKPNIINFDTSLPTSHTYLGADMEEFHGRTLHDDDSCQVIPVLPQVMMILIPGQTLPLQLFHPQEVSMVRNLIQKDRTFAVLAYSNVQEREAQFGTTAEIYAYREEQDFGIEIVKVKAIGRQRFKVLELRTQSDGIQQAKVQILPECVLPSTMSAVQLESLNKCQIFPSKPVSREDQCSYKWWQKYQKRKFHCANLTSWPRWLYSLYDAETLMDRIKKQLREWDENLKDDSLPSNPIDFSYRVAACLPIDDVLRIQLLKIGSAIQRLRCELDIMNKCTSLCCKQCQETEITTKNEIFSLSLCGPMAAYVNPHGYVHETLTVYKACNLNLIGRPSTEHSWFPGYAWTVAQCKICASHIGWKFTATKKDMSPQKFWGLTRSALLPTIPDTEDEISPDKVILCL
# Sequence of UniProt Q9UKS7 (whole entry, looked up): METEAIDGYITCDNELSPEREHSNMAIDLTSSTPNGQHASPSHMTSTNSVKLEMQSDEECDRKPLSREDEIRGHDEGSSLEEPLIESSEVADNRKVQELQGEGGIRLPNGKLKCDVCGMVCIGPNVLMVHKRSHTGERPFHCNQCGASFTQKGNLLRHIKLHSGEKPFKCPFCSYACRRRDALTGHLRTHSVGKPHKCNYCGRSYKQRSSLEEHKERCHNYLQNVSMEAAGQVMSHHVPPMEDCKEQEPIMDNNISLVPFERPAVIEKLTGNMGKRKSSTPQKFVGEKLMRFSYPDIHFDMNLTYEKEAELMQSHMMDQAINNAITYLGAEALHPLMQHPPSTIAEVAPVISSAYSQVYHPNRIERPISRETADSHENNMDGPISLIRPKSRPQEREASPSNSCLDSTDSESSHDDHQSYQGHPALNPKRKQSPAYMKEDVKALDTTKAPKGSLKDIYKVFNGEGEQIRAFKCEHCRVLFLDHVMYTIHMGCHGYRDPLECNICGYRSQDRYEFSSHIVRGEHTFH
# Action: degrader
# Technique: HiBiT
# Cells: HEK293
tested at,time,protein remaining
41.15 nM,6 h,81.4%
41.15 nM,,81.4%
4.572 nM,6 h,120%

# Block 3
# Target: tungstate, free oxyanion
# Technique: microfluidic competitive inhibition
# Medium: in vitro, cell-free expressed
# Tested at: not given
# Notes: derived from inhibition constants, unchanged parent 2230 nM
# Reading: lower = stronger binding
# Starting sequence: PafA, mature enzyme, eGFP fusion (Elizabethkingia meningoseptica, UniProt Q9KJX5); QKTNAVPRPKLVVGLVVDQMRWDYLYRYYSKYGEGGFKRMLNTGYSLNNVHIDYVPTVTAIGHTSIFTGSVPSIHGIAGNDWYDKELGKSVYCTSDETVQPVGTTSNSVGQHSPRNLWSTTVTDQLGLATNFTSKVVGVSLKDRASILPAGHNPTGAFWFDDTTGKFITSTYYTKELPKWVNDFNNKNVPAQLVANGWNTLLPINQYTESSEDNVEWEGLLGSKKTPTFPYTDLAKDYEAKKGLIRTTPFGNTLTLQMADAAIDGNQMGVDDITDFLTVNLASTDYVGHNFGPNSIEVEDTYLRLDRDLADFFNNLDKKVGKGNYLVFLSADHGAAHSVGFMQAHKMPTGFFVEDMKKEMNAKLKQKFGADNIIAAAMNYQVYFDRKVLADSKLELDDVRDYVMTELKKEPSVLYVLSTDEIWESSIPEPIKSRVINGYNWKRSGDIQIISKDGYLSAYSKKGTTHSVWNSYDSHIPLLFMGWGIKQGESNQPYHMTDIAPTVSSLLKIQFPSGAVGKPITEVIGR
Change,oxyanion analog dissociation constant
P501V,2.29 µM
H51G,2.36 µM
S338V,2.23 µM
F184G,1.2 µM
N199G,1.99 µM
S444G,1.6 µM
K363G,1.93 µM
A195G,2.13 µM

# Block 4
# SMILES: COc1ccc2c(c[n+](C)c3c4cc5c(cc4ccc23)OCO5)c1OC
# Read-out: enzyme activity
# Action: inhibitor
# Tested at: 0.5 µM
# Baseline: control
target,remaining activity [%]
"CHUK (Homo sapiens, UniProt O15111)",97.5
"Aurora kinase B (AURKB, Homo sapiens, UniProt Q96GD4)",99.2
"Cyclin-dependent kinase 6, with cyclin D1 (CDK6, Homo sapiens, UniProt Q00534)",103

# Block 5
# Compound: Cn1cncc1[C@](O)(COc1ccc(C#N)cc1-c1ccc(OC(F)(F)F)cc1)c1ccc(C#N)cc1
# Technique: competition with immobilised ligand
# Tested at: 1 µM
target,read-out,remaining binding [%]
"CAMK2D (Homo sapiens, UniProt Q13557)",cell-free assay,100
"BTK (Homo sapiens, UniProt Q06187)",cell-free assay,92
"STK10 (Homo sapiens, UniProt O94804)",cell-free assay,100
"DSTYK (Homo sapiens, UniProt Q6XUX3)",cell-free assay,90
"MARK4 (Homo sapiens, UniProt Q96L34)",cell-free assay,56
"CSNK1A1L (Homo sapiens, UniProt Q8N752)",cell-free assay,74
"ITK (Homo sapiens, UniProt Q08881)",cell-free assay,91
"RIOK3 (Homo sapiens, UniProt O14730)",cell-free assay,95
"PDPK1 (Homo sapiens, UniProt O15530)",cell-free assay,87
"EGFR (Homo sapiens, UniProt P00533, L858R)",cell-free assay,86
"Myosin-IIIb (MYO3B, Homo sapiens, UniProt Q8WXR4)",binding,71
"CDC42BPB (Homo sapiens, UniProt Q9Y5S2)",cell-free assay,76
"Ribosomal protein S6 kinase alpha-1, N-terminal kinase domain (RPS6KA1, Homo sapiens, UniProt Q15418)",cell-free assay,89
"PIK3C3 (Homo sapiens, UniProt Q8NEB9)",cell-free assay,91
"EGFR (Homo sapiens, UniProt P00533)",cell-free assay,80
"MAPK14 (Homo sapiens, UniProt Q16539)",cell-free assay,100
"MAP3K4 (Homo sapiens, UniProt Q9Y6R4)",cell-free assay,90

# Single results of other studies
SMILES,tested on,assay,test system,conditions,scale,endpoint,result
O=C1NC(=O)N(c2ccccc2)C(=O)C1=CNc1ccc(F)cc1,His6 tag,AlphaScreen counter screen,,concentration not given,,inhibition,3.05%
NC(=O)C[S@@+]([O-])C(c1ccccc1)c1ccccc1,A-375,,,"100 µM, 36 h",,viability,123%
CCCNS(=O)(=O)c1ccc(OCC(=O)N2CCN(Cc3ccc4c(c3)OCO4)CC2)c(C)c1,,,"human, microsomes or S9","2 µM, 0.5 h",,remaining compound,16%
C[C@]12CC[C@@H](O)C[C@H]1CC[C@@H]1[C@@H]2CC[C@]2(C)C(=O)CC[C@@H]12,"DNA polymerase theta, ATPase domain (POLQ, Homo sapiens, UniProt O75417)","enzyme activity, inhibitor",,77 µM,baseline: untreated,remaining activity,104%
C=CCN1C(=O)C(=Cc2ccc(OCC(=O)O)cc2)C(=O)N=C1O,His6 tag,AlphaScreen counter screen,,concentration not given,,inhibition,3%
O=C(Nc1ccc2[nH]ncc2c1)c1cc(N2CCNCC2)c(F)cc1F,,,"human, microsomes or S9","2 µM, 0.5 h",,remaining compound,69.8%

# A few entries again (block 3):
Change,oxyanion analog dissociation constant
P501V,2.29 µM
K363G,1.93 µM
F184G,1.2 µM
